Results pooled from the literature.
Compare with care: the assays were run in different laboratories. Numbers after ± are the reported error.

SMILES	test	system	setting	AUC(0-t)
O=C(O)C[C@H](O)C[C@H](O)/C=C/c1c(C2CC2)nc2ccccc2c1-c1ccc(F)cc1	–	male Sprague-Dawley rat (wild type), plasma	oral, 5 mg/kg	2020 ± 394 ng·h/mL
CN(Cc1cnc2nc(N)nc(N)c2n1)c1ccc(C(=O)N[C@@H](CCC(=O)O)C(=O)O)cc1	–	rat, plasma	oral, 5.0 mg/kg, 2880 min, with: indican 20.0 mg/kg oral	3.5 ± 0.473 µM·h
O=C(/C=C/c1ccc(O)c(O)c1)O[C@H](Cc1ccc(O)c(O)c1)C(=O)O	UPLC-MS/MS	Wistar rat, microcirculation dysfunction model, plasma	oral, 100 mg/kg Salvia miltiorrhiza stem-leaf extract FS	222 ± 16.9 ng·h/mL
CNC(=O)c1ccc(-c2cnc3ncc(Cc4ccc5ncccc5c4)n3n2)cc1F	–	moderate hepatic impairment	oral, 200 mg, geometric mean	5660 ng·h/mL
CS(=O)(=O)c1ccc(-c2cnc(N)c(-c3ccc(C(F)(F)F)nc3)c2)cc1	–	pregnant female Sprague-Dawley rat, plasma	oral, 10 mg/kg/day, gestation day 6	32900 ng·h/mL
CCN(CC)Cc1cc(Nc2ccnc3cc(Cl)ccc23)ccc1O	–	rat, Wistar, male, plasma	oral, 60 mg/kg, with: myricetin 5 mg/kg iv	4840 ± 608 ng·h/mL
O=C(/C=C/c1ccc(O)c(O)c1/C=C/c1ccc(O)c(O)c1)O[C@H](Cc1ccc(O)c(O)c1)C(=O)O	UPLC-MS/MS	Wistar rat, microcirculation dysfunction model, plasma	oral, 100 mg/kg Salvia miltiorrhiza stem-leaf extract FS	132 ± 29.3 ng·h/mL
C=CC(=O)Nc1cc(Nc2nccc(-c3cn(C)c4ccccc34)n2)c(OC)cc1N(C)CCN(C)C	–	male Sprague-Dawley rat, plasma	oral, 10 mg/kg, PEG200 pretreatment only	534 ± 143 ng·h/mL
O=C(/C=C/c1ccc(O)c2c1[C@H](C(=O)O)[C@@H](c1ccc(O)c(O)c1)O2)O[C@H](Cc1ccc(O)c(O)c1)C(=O)O	UPLC-MS/MS	Wistar rat, microcirculation dysfunction model, plasma	oral, 100 mg/kg Salvia miltiorrhiza stem-leaf extract FS	203 ± 33.4 ng·h/mL
CCN1CCN(c2ccc(Nc3cc(N(C)C(=O)Nc4c(Cl)c(OC)cc(OC)c4Cl)ncn3)cc2)CC1	LC-MS/MS	juvenile male Crl:WI(Han) rats, plasma	oral gavage, 1.0 mg/kg/day, postnatal day 17	354 ng·h/mL
O=C(O)/C=C/c1ccc(O)c(O)c1	UPLC-MS/MS	Wistar rat, microcirculation dysfunction model, plasma	oral, 100 mg/kg Salvia miltiorrhiza stem-leaf extract FT	45.1 ± 6.76 ng·h/mL
CCCC[C@H](NC(C)=O)C(=O)N[C@H]1CCC(=O)NC[C@@H](C(=O)N[C@@H](Cc2c[nH]c3ccccc23)C(N)=O)NC(=O)[C@H](CCCNC(=N)N)NC(=O)[C@@H](Cc2ccccc2)NC(=O)[C@H](Cc2c[nH]cn2)NC1=O	–	CD Sprague Dawley rat, male, plasma	subcutaneous, 5.0 mg/kg daily, day 14	1640 ng·h/mL

Some of these lines once more:
SMILES	test	system	setting	AUC(0-t)
O=C(O)/C=C/c1ccc(O)c(O)c1	UPLC-MS/MS	Wistar rat, microcirculation dysfunction model, plasma	oral, 100 mg/kg Salvia miltiorrhiza stem-leaf extract FT	45.1 ± 6.76 ng·h/mL
O=C(/C=C/c1ccc(O)c(O)c1/C=C/c1ccc(O)c(O)c1)O[C@H](Cc1ccc(O)c(O)c1)C(=O)O	UPLC-MS/MS	Wistar rat, microcirculation dysfunction model, plasma	oral, 100 mg/kg Salvia miltiorrhiza stem-leaf extract FS	132 ± 29.3 ng·h/mL
